Experimental data from different studies.
Lines come from different studies, so protocols differ. Values joined by “and” are separate records of one study, mostly repeats; a detail may differ. ± gives the spread as reported.
Low molecular weight protein-tyrosine phosphatase A: Low molecular weight protein-tyrosine phosphatase A (Mycobacterium tuberculosis, UniProt P9WIA1)
Sequence of UniProt P9WIA1 (whole entry, looked up): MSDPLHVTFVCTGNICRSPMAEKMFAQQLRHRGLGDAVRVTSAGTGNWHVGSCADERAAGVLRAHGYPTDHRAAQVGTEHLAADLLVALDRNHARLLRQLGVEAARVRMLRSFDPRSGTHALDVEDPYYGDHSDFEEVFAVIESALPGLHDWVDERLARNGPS
4'-phosphopantetheinyl transferase PptT: 4'-phosphopantetheinyl transferase PptT (Mycobacterium tuberculosis, UniProt O33336)
Sequence of UniProt O33336 (whole entry, looked up): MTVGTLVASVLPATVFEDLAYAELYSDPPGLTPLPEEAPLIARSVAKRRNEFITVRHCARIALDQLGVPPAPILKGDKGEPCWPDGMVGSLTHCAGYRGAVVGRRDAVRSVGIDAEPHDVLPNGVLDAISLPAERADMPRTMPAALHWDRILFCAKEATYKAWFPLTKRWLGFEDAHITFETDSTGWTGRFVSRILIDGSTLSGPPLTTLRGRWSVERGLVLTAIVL
cyp121: Mycocyclosin synthase (cyp121, Mycobacterium tuberculosis, UniProt P9WPP7)
Sequence of UniProt Q9H2X3 (whole entry, looked up): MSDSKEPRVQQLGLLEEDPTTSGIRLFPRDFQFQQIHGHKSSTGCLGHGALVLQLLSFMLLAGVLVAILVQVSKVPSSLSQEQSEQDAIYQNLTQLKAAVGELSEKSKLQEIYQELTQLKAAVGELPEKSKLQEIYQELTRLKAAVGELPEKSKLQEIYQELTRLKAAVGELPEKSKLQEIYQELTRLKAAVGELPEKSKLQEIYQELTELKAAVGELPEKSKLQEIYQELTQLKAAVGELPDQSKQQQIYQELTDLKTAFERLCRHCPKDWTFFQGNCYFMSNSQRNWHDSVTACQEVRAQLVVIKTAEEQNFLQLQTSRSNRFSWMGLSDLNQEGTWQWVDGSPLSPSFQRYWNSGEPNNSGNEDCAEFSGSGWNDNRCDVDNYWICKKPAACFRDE
Sequence of UniProt P9WPP7 (whole entry, looked up): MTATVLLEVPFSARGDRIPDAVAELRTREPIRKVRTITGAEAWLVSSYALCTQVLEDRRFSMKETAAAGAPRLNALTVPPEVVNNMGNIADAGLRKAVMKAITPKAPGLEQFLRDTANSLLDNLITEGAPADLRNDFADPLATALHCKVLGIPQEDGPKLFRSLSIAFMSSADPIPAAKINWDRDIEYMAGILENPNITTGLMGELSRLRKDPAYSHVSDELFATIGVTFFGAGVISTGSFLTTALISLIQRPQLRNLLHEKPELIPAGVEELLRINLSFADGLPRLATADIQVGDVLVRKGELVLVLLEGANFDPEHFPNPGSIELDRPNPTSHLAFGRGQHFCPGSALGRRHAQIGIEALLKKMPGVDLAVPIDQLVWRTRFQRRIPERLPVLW
Sequence of UniProt P42575 (whole entry, looked up): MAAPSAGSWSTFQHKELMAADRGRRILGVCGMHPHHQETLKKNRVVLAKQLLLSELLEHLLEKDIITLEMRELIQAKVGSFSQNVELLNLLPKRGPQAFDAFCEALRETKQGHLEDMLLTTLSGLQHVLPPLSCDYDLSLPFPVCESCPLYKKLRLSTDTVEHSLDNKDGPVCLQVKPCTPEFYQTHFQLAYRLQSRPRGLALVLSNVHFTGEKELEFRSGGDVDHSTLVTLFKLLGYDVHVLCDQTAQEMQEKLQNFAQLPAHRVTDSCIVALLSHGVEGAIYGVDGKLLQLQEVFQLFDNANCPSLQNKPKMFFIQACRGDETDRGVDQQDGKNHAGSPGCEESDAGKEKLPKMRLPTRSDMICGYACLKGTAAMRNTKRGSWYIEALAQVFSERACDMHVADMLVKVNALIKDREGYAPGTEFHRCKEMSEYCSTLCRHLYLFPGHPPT
Sequence of UniProt P47026 (whole entry, looked up): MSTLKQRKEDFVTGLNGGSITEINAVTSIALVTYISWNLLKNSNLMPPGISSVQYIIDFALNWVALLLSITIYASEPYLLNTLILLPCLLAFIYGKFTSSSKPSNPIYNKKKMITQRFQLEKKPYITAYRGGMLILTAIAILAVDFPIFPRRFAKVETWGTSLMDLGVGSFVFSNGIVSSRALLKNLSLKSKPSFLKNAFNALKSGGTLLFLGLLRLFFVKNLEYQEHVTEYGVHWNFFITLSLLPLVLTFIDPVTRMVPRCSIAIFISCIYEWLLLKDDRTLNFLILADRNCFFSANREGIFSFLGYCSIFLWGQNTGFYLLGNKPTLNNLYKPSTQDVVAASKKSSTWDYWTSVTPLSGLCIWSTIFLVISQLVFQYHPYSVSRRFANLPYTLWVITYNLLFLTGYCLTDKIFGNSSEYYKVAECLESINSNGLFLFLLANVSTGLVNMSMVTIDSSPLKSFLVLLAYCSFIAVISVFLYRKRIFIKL
Sequence of UniProt P17658 (whole entry, looked up): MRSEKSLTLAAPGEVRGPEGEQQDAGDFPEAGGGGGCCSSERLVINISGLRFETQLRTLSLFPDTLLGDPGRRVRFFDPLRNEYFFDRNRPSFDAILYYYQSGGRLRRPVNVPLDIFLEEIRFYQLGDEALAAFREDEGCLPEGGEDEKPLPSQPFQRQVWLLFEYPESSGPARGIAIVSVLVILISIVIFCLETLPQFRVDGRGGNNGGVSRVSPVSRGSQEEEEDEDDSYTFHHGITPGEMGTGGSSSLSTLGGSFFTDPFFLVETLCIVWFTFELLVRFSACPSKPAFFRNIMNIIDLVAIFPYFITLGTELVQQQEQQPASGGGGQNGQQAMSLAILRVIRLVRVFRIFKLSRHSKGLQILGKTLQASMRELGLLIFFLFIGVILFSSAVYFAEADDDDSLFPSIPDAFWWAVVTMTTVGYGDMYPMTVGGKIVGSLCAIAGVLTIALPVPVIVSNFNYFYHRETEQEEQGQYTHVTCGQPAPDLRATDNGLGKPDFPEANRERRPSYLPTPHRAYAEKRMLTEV

Cc1cc(Oc2nc(N3CC[C@@H](c4ccncc4)C3)ncc2F)[nH]n1
IC50 (ACHN; cell proliferation; kidney cancer): 40.7 µM

N=C(N)NCc1cn([C@@H]2[C@@H](OCCCl)O[C@H](CO)[C@@H](O)[C@@H]2O)nn1
IC50 (C-type lectin domain family 4 member M, extracellular domain (CLEC4M, Homo sapiens, UniProt Q9H2X3); inhibitor): 24.1 µM and 23.7 µM

N[C@@H](CCC(=O)N[C@@H](CS[Se]Cc1ccc(C(=O)Nc2ccccc2)cc1)C(=O)NCC(=O)O)C(=O)O
IC50 (Low molecular weight protein-tyrosine phosphatase A; enzyme activity): 2.83 µM

C#CCN(Cc1ccc2nc(C)[nH]c(=O)c2c1)c1cnc(C(=O)NC(CCC(=O)O)C(=O)O)s1 (stereo not drawn)
IC50 (4'-phosphopantetheinyl transferase PptT; enzyme activity, inhibitor, FP): 0.043 µM

CC(C)(C)C(=O)OCOP(=O)(OCOC(=O)C(C)(C)C)C1CCCN(O)C1=O (stereo not drawn)
CC50 (TK-10): > 100 µM

Nc1ccccc1C(=O)OCC#CCOC(=O)c1ccccc1N
IC50 (GPI-anchored wall transfer protein 1 (GWT1, Saccharomyces cerevisiae, UniProt P47026); GlcN-PI acylation, inhibitor, TLC; Saccharomyces cerevisiae membranes): ~61.7 µM

O=C1NC2(CC2)COc2ncc(F)cc2[C@H]2COCCN2c2ccn3ncc1c3n2
organ-to-body weight ratio (Sprague-Dawley rat, male, brain; oral, 2.5 mg/kg/day, 4 weeks, end of treatment): 0.494 ± 0.041%

C#CCN(Cc1ccc2nc(C)[nH]c(=O)c2c1)c1ccc(C(=O)NC(CCC(=O)O)C(=O)O)c(O)c1 (stereo not drawn)
IC50 (4'-phosphopantetheinyl transferase PptT; enzyme activity, inhibitor, FP): 0.035 µM

CC[C@H](C)[C@@H]1NC(=O)[C@@H](NC(=O)CNC(=O)[C@@H](N)CCCCN)CSSC[C@@H]2NC(=O)[C@@H]3CSSC[C@H](NC(=O)[C@H](CCC(N)=O)NC(=O)[C@H](CC(C)C)NC(=O)[C@@H]4CCCN4C(=O)[C@H](CCCNC(=N)N)NC2=O)C(=O)N[C@@H](CCCCN)C(=O)NCC(=O)N2CCC[C@H]2C(=O)N[C@@H](CO)C(=O)N2CCC[C@H]2C(=O)N[C@@H](CCCCN)C(=O)N[C@@H](CCC(N)=O)C(=O)N[C@@H](CCCCN)C(=O)N[C@@H](CCCCN)C(=O)N[C@H](C(=O)N[C@H](C(=O)N[C@@H](CCCCN)C(=O)N[C@H](C(=O)O)C(C)C)[C@@H](C)O)CSSC[C@H](NC(=O)[C@H](Cc2c[nH]c4ccccc24)NC(=O)[C@H](CCCCN)NC(=O)CNC(=O)[C@H](CCC(=O)O)NC(=O)[C@H](CCCCN)NC1=O)C(=O)N1CCC[C@H]1C(=O)N[C@@H](CCCCN)C(=O)N[C@@H]([C@@H](C)O)C(=O)N[C@@H](C)C(=O)N1CCC[C@H]1C(=O)N3
IC50 (Potassium voltage-gated channel subfamily A member 6 (Homo sapiens, UniProt P17658); ion current, inhibitor, patch clamp; pH 7.4): 0.0044 µM

CN(Cc1ccc2ncccc2c1)c1ccc(C(=O)NC(CCC(=O)O)C(=O)O)cc1 (stereo not drawn)
IC50 (4'-phosphopantetheinyl transferase PptT; enzyme activity, inhibitor, fluorescence polarization; enzyme 100 nM): > 25 µM

c1cn(Cc2ccc(-c3ccc4c(c3)OCO4)cc2)cn1
IC50 (cyp121; substrate depletion, inhibitor, LC-MS/MS; added: cYY 20 µM): 34 µM

N[C@@H](CCC(=O)N[C@@H](CS[Se]Cc1ccccc1)C(=O)NCC(=O)O)C(=O)O
IC50 (Low molecular weight protein-tyrosine phosphatase A; enzyme activity): 9.08 µM

Fc1ccc(-c2ccc(/C=C/Cn3ccnc3)cc2)cc1
IC50 (cyp121; mycocyclosin formation, inhibitor, LC-MS/MS; added: cYY 20 µM): 24 µM

CC(C)CC(C(=O)N1CC2(CC1C#N)C(=O)Nc1ccccc12)N(C)C(=O)c1cc2c(F)cc(F)c(F)c2[nH]1 (stereo not drawn)
IC50 (Caspase-2 (Homo sapiens, UniProt P42575); enzyme activity, inhibitor): 4.63 µM and 4.6 µM

C#CCN(Cc1ccc2nc(C)[nH]c(=O)c2c1)c1ccc(C(=O)NC(CCC(=O)O)C(=O)O)cc1 (stereo not drawn)
IC50 (4'-phosphopantetheinyl transferase PptT; enzyme activity, inhibitor, FP): 0.065 µM
